Measured values pooled from the literature.
Numbered parts are unrelated; each lists some results of a single study. Values joined by “and” are separate records of one study, mostly repeats; a detail may differ.
Chain of UniProt Q9UKT9 (whole entry, looked up): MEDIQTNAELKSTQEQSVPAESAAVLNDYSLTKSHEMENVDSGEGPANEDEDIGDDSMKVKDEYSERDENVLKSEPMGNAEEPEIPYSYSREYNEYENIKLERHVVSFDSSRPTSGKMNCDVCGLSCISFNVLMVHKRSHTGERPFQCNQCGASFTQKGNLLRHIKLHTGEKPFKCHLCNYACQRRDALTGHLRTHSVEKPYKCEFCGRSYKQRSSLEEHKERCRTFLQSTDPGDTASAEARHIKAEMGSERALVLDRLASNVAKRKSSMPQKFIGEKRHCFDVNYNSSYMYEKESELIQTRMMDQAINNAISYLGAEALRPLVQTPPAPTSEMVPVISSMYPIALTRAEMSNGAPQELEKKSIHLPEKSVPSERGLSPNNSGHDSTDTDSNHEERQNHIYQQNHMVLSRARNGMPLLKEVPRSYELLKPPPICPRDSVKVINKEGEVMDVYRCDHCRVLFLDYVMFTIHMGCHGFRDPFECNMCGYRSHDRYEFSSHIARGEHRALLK
Chain of UniProt Q9BUB5 (whole entry, looked up): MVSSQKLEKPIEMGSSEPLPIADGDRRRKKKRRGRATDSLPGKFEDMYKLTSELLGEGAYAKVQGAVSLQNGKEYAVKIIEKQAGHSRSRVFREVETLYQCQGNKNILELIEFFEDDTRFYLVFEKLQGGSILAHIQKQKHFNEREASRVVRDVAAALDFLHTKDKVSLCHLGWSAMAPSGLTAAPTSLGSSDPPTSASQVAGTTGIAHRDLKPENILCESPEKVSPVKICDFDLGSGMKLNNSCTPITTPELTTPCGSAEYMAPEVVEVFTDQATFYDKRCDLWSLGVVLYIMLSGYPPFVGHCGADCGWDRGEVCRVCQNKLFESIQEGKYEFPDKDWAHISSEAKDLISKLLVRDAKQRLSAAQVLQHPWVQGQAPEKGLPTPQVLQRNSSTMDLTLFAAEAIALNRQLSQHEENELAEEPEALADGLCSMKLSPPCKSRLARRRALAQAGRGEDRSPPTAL
Chain of UniProt Q9UJQ4 (whole entry, looked up): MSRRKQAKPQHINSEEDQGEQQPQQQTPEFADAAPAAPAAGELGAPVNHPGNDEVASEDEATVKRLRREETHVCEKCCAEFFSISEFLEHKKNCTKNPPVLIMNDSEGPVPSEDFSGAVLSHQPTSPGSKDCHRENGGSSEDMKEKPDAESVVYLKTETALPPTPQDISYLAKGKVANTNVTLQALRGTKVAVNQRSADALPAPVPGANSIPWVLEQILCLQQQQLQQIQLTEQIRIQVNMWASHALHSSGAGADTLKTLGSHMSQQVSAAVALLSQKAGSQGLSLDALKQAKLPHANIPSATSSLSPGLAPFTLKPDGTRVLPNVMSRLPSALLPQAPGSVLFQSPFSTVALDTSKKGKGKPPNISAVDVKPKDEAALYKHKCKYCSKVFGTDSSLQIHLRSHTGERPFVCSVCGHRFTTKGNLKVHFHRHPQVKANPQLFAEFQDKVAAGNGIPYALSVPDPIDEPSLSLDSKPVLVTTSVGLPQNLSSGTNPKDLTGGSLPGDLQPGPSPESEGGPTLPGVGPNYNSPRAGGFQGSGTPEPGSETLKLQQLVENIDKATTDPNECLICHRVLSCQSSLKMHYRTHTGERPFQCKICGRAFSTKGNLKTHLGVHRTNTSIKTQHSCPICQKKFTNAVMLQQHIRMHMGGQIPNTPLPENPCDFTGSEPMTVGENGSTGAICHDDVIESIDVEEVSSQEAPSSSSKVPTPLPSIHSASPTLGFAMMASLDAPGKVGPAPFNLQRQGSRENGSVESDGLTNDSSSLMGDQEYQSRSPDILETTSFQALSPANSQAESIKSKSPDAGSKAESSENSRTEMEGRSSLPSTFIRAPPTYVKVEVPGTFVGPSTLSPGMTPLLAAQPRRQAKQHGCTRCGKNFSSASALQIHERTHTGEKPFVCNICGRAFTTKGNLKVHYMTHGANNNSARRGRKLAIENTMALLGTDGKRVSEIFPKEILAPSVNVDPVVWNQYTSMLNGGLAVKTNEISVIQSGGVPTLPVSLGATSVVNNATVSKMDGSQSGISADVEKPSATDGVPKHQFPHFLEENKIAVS
Chain of UniProt Q92918 (whole entry, looked up): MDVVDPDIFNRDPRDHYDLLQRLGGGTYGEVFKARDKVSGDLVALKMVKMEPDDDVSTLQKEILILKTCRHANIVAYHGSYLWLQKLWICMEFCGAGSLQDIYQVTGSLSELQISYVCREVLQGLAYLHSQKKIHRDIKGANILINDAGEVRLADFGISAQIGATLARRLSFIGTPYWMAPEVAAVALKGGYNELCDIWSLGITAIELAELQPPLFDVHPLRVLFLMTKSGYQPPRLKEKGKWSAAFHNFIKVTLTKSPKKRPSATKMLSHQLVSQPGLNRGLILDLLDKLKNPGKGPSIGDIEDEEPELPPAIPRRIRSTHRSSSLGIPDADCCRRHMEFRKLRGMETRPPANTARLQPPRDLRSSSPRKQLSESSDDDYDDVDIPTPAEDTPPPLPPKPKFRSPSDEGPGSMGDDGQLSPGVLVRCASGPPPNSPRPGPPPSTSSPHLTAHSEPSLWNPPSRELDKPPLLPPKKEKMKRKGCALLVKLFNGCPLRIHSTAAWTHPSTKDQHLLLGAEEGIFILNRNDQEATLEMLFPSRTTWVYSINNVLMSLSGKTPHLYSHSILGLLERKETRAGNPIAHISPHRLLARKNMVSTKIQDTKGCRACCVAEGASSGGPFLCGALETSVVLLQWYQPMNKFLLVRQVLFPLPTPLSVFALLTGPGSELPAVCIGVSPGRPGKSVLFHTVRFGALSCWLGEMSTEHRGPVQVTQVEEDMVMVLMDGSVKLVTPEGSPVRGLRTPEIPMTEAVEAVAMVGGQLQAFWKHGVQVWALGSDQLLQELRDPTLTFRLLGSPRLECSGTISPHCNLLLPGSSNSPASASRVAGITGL
Chain of UniProt P41743 (whole entry, looked up): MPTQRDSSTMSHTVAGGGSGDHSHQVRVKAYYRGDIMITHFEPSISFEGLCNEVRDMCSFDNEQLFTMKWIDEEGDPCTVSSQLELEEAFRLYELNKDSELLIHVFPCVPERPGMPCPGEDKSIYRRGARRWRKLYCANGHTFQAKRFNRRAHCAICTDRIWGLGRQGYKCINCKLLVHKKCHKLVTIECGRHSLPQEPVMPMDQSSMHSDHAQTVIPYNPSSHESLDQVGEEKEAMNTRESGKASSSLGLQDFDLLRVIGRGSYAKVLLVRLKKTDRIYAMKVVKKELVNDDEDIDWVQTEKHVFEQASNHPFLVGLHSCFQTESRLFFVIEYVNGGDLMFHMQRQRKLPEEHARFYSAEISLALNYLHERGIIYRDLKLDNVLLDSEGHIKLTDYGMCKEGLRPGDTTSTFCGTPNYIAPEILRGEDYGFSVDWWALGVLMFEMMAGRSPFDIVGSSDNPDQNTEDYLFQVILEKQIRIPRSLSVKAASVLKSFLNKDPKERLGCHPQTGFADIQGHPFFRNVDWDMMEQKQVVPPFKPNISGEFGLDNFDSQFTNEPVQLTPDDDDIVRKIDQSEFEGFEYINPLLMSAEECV

Study 1
Structure (SMILES): CC(C)n1cnc(-c2ccc(F)cc2)c1-c1ncc(C(=O)Nc2ccc(N3CCN(C)CC3)cc2)[nH]1
Technique: phase 2a trial
Species: idiopathic pulmonary fibrosis patients
60 mg once daily, grade 3 emergent event — “patients with hypothyroidism”: 0%.
30 mg once daily, grade 3 emergent event — “patients with hypothyroidism”: 0%.
30 mg once daily, grade 1 emergent event — “patients with hypothyroidism”: 0%.
It gave 0% for “patients with hypothyroidism” (all arms pooled, grade 2 emergent event).
For all arms pooled, grade 1 emergent event: “patients with hypothyroidism” read 0%.
30 mg once daily, grade 4 emergent event — “patients with hypothyroidism”: 0%.

Study 2
Structure (SMILES): O=C1CCC(N2Cc3cc(C4CCN(Cc5ccccc5)CC4)ccc3C2=O)C(=O)N1 (stereo not shown)
Mode: degrader
DNA-binding protein Ikaros: DNA-binding protein Ikaros (Homo sapiens, UniProt Q13422)
Chain of UniProt Q13422 (whole entry, looked up): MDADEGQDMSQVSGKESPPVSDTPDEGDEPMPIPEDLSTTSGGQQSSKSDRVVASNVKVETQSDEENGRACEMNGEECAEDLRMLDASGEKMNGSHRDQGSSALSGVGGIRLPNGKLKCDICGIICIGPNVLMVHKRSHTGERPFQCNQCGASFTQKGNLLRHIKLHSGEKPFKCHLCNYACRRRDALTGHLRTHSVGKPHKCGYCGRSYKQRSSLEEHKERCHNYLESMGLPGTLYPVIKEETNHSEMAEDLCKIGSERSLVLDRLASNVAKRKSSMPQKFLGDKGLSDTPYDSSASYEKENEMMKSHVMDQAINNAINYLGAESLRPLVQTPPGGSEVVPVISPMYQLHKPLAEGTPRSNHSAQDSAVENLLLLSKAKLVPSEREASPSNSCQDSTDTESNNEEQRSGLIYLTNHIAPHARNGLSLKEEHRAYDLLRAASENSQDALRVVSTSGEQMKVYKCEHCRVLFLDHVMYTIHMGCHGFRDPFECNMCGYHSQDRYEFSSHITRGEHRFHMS
CSNK1A1: Casein kinase I isoform alpha (CSNK1A1, Homo sapiens, UniProt P48729)
Chain of UniProt P48729 (whole entry, looked up): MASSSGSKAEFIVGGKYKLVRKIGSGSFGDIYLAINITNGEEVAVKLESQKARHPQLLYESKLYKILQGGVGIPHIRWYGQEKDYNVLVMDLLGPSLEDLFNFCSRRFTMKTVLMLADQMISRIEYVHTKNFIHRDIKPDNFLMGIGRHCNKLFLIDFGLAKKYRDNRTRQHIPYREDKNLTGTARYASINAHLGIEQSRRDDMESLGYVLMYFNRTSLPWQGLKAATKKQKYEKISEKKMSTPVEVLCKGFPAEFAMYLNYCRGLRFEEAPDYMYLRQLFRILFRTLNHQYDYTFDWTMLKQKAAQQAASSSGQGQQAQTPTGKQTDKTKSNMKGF
GSPT1: Eukaryotic peptide chain release factor GTP-binding subunit ERF3A (GSPT1, Homo sapiens, UniProt P15170)
Chain of UniProt P15170 (whole entry, looked up): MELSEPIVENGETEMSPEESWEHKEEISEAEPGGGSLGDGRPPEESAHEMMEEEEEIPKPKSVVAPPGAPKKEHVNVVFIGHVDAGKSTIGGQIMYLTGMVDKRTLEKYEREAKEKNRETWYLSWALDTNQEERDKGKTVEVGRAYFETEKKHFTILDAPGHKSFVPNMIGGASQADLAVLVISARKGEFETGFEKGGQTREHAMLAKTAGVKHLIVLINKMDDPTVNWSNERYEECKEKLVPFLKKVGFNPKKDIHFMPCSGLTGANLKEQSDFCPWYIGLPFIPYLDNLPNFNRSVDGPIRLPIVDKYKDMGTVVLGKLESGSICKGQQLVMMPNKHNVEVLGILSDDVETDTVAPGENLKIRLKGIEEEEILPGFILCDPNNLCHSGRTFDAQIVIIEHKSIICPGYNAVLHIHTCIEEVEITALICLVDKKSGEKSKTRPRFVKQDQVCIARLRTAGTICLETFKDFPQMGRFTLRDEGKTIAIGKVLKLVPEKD
It gave 99.6% and 86.2% for remaining protein (DNA-binding protein Ikaros; HiBiT; HEK293; 0.3704 µM).
The remaining protein was 107% (CRBN/Zinc finger protein Helios (Homo sapiens, UniProt Q96SW2+Q9UKS7); flow cytometry; primary human regulatory T cells; 0.001372 µM, 6 h).
CSNK1A1; HiBiT; HEK293 HiBiT-CK1α; 0.5081 nM — remaining protein: 102% and 90.8%.
Zinc finger protein Aiolos (Homo sapiens, UniProt Q9UKT9); HiBiT; HEK293; 0.004572 µM — remaining protein: 90.4% and 83.8%.
DNA-binding protein Ikaros; HiBiT; HEK293; 0.001524 µM — remaining protein: 99.4% and 90.1%.
It gave 95% and 90.7% for remaining protein (CSNK1A1; HiBiT; HEK293 HiBiT-CK1α; 13.72 nM).
The remaining protein was 107% and 124% (GSPT1; HiBiT; HEK293; 1.111 µM).
GSPT1; HiBiT; HEK293; 0.1235 µM — remaining protein: 109% and 100%.
Sal-like protein 4 (SALL4, Homo sapiens, UniProt Q9UJQ4); HiBiT; HEK293; 0.3704 µM, 6 h — remaining protein: 51.7%.

Study 3
SMILES: CCOC(=O)c1cc2cc(-c3cc(C(=O)NCc4ccc(C(=O)O)cc4)nn3C)ccc2[nH]1
Tested at: 0.1 µM
For MKNK1 (Homo sapiens, UniProt Q9BUB5); cell-free assay, competition with immobilised ligand: remaining binding read 75%.
It gave 87% for remaining binding (PRKCI (Homo sapiens, UniProt P41743); cell-free assay, competition with immobilised ligand).
The remaining binding was 97% (MAP2K7 (Homo sapiens, UniProt O14733); cell-free assay, competition with immobilised ligand).
For STK17B (Homo sapiens, UniProt O94768); cell-free assay, competition with immobilised ligand: remaining binding read 100%.
For AKT1 (Homo sapiens, UniProt P31749); cell-free assay, competition with immobilised ligand: remaining binding read 100%.
For MAP4K1 (Homo sapiens, UniProt Q92918); cell-free assay, competition with immobilised ligand: remaining binding read 100%.
For NEK4 (Homo sapiens, UniProt P51957); cell-free assay, competition with immobilised ligand: remaining binding read 81%.
Tyrosine-protein kinase ABL1, non-phosphorylated (ABL1, Homo sapiens, UniProt P00519, F317L); cell-free assay, competition with immobilised ligand — remaining binding: 61%.
The remaining binding was 72% (FLT3 (Homo sapiens, UniProt P36888, F691L/ITD); cell-free assay, competition with immobilised ligand).
It gave 84% for remaining binding (MAP4K2 (Homo sapiens, UniProt Q12851); cell-free assay, competition with immobilised ligand).
For CASK (Homo sapiens, UniProt O14936); cell-free assay, competition with immobilised ligand: remaining binding read 71%.
FER (Homo sapiens, UniProt P16591); cell-free assay, competition with immobilised ligand — remaining binding: 100%.
Tyrosine-protein kinase ABL1, non-phosphorylated (ABL1, Homo sapiens, UniProt P00519, T315I); cell-free assay, competition with immobilised ligand — remaining binding: 83%.
The remaining binding was 100% (IRAK3 (Homo sapiens, UniProt Q9Y616); cell-free assay, competition with immobilised ligand).
KIT (Homo sapiens, UniProt P10721, L576P); cell-free assay, competition with immobilised ligand — remaining binding: 100%.
CILK1 (Homo sapiens, UniProt Q9UPZ9); cell-free assay, competition with immobilised ligand — remaining binding: 85%.
It gave 84% for remaining binding (Tyrosine-protein kinase ABL1, phosphorylated (ABL1, Homo sapiens, UniProt P00519, F317I); binding).
It gave 85% for remaining binding (GAK (Homo sapiens, UniProt O14976); cell-free assay, competition with immobilised ligand).
It gave 95% for remaining binding (CAMKK2 (Homo sapiens, UniProt Q96RR4); cell-free assay, competition with immobilised ligand).

Study 4
Technique: logD(dd/w) and ALogP
Setting: JT method
CC(C)C[C@@H]1NC(=O)[C@H](C)NC(=O)[C@@H](CC(C)C)NC(=O)[C@H](C)NC(=O)[C@H](CC(C)C)NC(=O)[C@H](CC(C)C)NC(=O)[C@H](CC(C)C)NC1=O: “lipophilic permeability efficiency” 2.89.
CC(C)C[C@@H]1NC(=O)[C@H](Cc2cscn2)NC(=O)[C@H](CCC(=O)N2CCCC2)NC(=O)[C@H](C)NC(=O)[C@@H](Cc2cscn2)NC(=O)[C@H](CC(C)C)NC(=O)[C@@H](CC(C)C)NC1=O — result for “lipophilic permeability efficiency”: 2.
CC(C)C[C@@H]1NC(=O)[C@H](CC(C)C)NC(=O)[C@@H](C(C)C)NC(=O)[C@H](C(C)C)NC(=O)[C@H](C)NC(=O)[C@@H](CC(C)C)NC(=O)[C@H](C)NC1=O: “lipophilic permeability efficiency” 2.09.
CC(C)C[C@@H]1NC(=O)[C@H](Cc2cscn2)NC(=O)[C@@H](CC(C)C)NC(=O)[C@H](CC(C)C)NC(=O)[C@@H](CCC(=O)N2CCCC2)NC(=O)[C@H](CC(C)C)NC(=O)[C@@H](CC(C)C)NC1=O — result for “lipophilic permeability efficiency”: 2.35.
CC(C)C[C@@H]1NC(=O)[C@H](CC(C)C)NC(=O)[C@@H](CC(C)C)NC(=O)[C@H](C(C)C)NC(=O)[C@H](C(C)C)NC(=O)[C@H](C)NC(=O)[C@H](C)NC1=O: “lipophilic permeability efficiency” 2.07.
CC(C)C[C@@H]1NC(=O)[C@H](CC(C)C)NC(=O)[C@@H](CC(C)C)NC(=O)[C@H](CC(C)C)NC(=O)[C@@H](CCC(=O)N2CCCC2)NC(=O)[C@H](Cc2cscn2)NC(=O)[C@H](C)NC1=O — result for “lipophilic permeability efficiency”: 2.09.

Some of these lines once more (study 2):
It gave 99.6% and 86.2% for remaining protein (DNA-binding protein Ikaros; HiBiT; HEK293; 0.3704 µM).
Sal-like protein 4 (SALL4, Homo sapiens, UniProt Q9UJQ4); HiBiT; HEK293; 0.3704 µM, 6 h — remaining protein: 51.7%.
CSNK1A1; HiBiT; HEK293 HiBiT-CK1α; 0.5081 nM — remaining protein: 102% and 90.8%.
GSPT1; HiBiT; HEK293; 0.1235 µM — remaining protein: 109% and 100%.
It gave 95% and 90.7% for remaining protein (CSNK1A1; HiBiT; HEK293 HiBiT-CK1α; 13.72 nM).
The remaining protein was 107% (CRBN/Zinc finger protein Helios (Homo sapiens, UniProt Q96SW2+Q9UKS7); flow cytometry; primary human regulatory T cells; 0.001372 µM, 6 h).
